Results gathered from unrelated publications.
Every numbered part comes from another study and shows a few of its results, in no order. Several values in a cell are separate wells, animals, samples, runs or records.

Block 1
Target: Alpha-1D adrenergic receptor (ADRA1D, Homo sapiens, UniProt P25100)
Chain of UniProt P25100 (whole entry, looked up): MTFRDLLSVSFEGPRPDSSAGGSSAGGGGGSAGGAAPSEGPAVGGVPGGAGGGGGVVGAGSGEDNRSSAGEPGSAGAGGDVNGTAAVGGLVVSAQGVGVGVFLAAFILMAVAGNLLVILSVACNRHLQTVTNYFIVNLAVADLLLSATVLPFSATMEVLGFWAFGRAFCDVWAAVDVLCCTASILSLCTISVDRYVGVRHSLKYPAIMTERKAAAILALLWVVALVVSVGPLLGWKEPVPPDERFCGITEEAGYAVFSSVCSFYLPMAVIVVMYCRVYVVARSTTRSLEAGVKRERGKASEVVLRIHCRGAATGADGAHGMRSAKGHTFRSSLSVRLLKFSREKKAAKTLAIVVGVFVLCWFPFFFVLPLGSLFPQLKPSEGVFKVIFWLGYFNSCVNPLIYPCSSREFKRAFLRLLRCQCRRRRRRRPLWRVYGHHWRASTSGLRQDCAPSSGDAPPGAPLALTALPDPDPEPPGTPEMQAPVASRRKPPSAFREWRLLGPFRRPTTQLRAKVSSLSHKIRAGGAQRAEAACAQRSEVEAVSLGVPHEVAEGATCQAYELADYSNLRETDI
Observed: ligand displacement
Concentration: 10 µM
Endpoint: inhibition
Compound = N#CC1(c2ccccn2)CCN(Cc2cc(C(=O)N3CCCC3)c(=O)n3ccccc23)CC1; value = -10.2%
Compound = CCC(=NO)C(C)=Cc1ccc(F)c(C)c1; value = -3.74%
Compound = O=C(N[C@H]1CCCCC/C=C\C2C[C@@]2(C(=O)O)NC(=O)[C@@H]2C[C@@H](Oc3ccncc3)CN2C1=O)OC1CCCC1 (some centres unmarked); value = -19.4%
Compound = CN1CCN(C(=O)C(C)(C)c2ccc(C(=O)Nc3cn4cc(-c5cc(C(C)(C)C)cc(C(C)(C)C)c5)ccc4n3)cc2)CC1; value = 57%
Compound = CCOc1ccc(S(=O)(=O)Nc2ccc(Cl)cc2C#Cc2cnc(C(=O)O)cc2OC)c2ncccc12; value = 20.8%
Compound = CN1CCN(c2ccnc(NCCc3ccccc3)n2)CC1; value = 26%
Compound = O=C(NCCCC1CCCCC1)c1ccc(CNC(=O)c2cnn(-c3ccccc3)c2C(F)(F)F)cc1; value = 10.1%
Compound = C[C@@H]1CN(c2cc(-c3n[nH]c4ccc(OC5(C)CC5)cc34)ncn2)C[C@H](C)O1; value = 3.26%
Compound = NC(=O)c1ccc2nc(-c3ccc(C4(N)CCC4)cc3)c(-c3ccccc3)n2n1; value = 37.8%
Compound = Cn1nc(C(=O)NCc2ccc(C(=O)O)cc2)cc1-c1ccc2[nH]ccc2c1; value = -18.8%
Compound = c1ccc(N2CCN(Cc3nc4ccccc4[nH]3)CC2)nc1; value = -4.6%
Compound = O=S(=O)(NC1CCC(c2cc(F)ccc2F)(S(=O)(=O)c2ccc(Cl)cc2)CC1)C(F)(F)F (centres unmarked); value = 0.882%
Compound = CNC(=N)NCCC[C@H](NC(=O)[C@H](CC(C)C)NC(=O)NNC(=O)[C@H](Cc1ccccc1)NC(=O)[C@H](CO)NC(=O)[C@H](CC(N)=O)NC(=O)[C@@H](Cc1ccncc1)NC(=O)[C@H](N)Cc1ccc(O)cc1)C(=O)N[C@@H](Cc1ccccc1)C(N)=O; value = 13.9%

Block 2
Host: mouse
Sample: microsomes or S9
Concentration: 2 µM
Time: 0.5 h
Endpoint: remaining compound
Compound = CCOc1ccc(Nc2ncc(F)c(Nc3ccc(OCC)cc3)n2)cc1; value = 1.06%
Compound = CC(C)n1c(=O)ccc2cnc(Nc3ccc(N4CCN(C)CC4)cc3)nc21; value = 42.1%
Compound = Cc1ccc2nc(-c3nnc(-c4noc5c4CC(C)CC5)o3)ccc2c1 (centres unmarked); value = 0.0361%
Compound = CN(Cc1ccccc1N1CCCCC1)S(=O)(=O)c1cn(C)c(=O)n(C)c1=O; value = 3.52%
Compound = Cc1noc(C2CCCN2C(=O)c2ccnc3c2nnn3C)n1 (centres unmarked); value = > 100%

Block 3
Cell line: Huh-7
Concentration: 10 µM
Time: 24 h
Endpoint: viability
SMILES = CC(C[N+](C)(C)C)OC(N)=O (centres unmarked); value = 102%
SMILES = COC(=O)[C@H](Cc1ccccc1)NC(=O)[C@@H](N)CC(=O)O; value = 102%
SMILES = C[C@H](CCC(=O)O)[C@H]1CC[C@H]2[C@@H]3C(=O)C[C@@H]4CC(=O)CC[C@]4(C)[C@H]3CC(=O)[C@]12C; value = 102%
SMILES = CC[C@H]1OC(=O)C[C@@H](O)[C@H](C)[C@@H](O[C@@H]2O[C@H](C)[C@@H](O)[C@H](N(C)C)[C@H]2O)[C@@H](CCN2C[C@H](C)C[C@H](C)C2)C[C@@H](C)C(=O)/C=C/C(C)=C/[C@@H]1CO[C@@H]1O[C@H](C)[C@@H](O)[C@@H](OC)[C@H]1OC; value = 104%

Block 4
Cell line: mouse MPNST tumor cells
Technique: high-content nuclear imaging
Measured: cell number
Concentration: 10 µM
Time: 12 h
Notes: mean of 2 replicates
Relative to: plate mean
Reading: higher = more cells
Endpoint: nuclei count
SMILES = Cc1ncc([N+](=O)[O-])n1CC(C)O (centres unmarked); value = 0.631 z-score
SMILES = CCCCC(=O)N(Cc1ccc(-c2ccccc2-c2nnn[nH]2)cc1)[C@H](C(=O)O)C(C)C; value = 0.784 z-score and 1.39 z-score
SMILES = Cc1cccc(C)c1NC(=O)C(C)N (centres unmarked); value = -0.185 z-score
SMILES = CCCCCCOc1nsnc1C1=CCCN(C)C1; value = 2.91 z-score
